# Measurements pooled from the literature.
# Each numbered part is a random draw from the data of one study; scales do not carry over between parts.

# Sample 1 — method: protein-binding microarray; form: double-stranded DNA, one strand shown; matrix: in vitro; concentration: 0.8 µM; setting: whole 60-bp probe, no competitor; direction: higher = stronger binding
# Target: Centromere-binding protein 1, full length, N-terminal tag (CBF1, Saccharomyces cerevisiae, UniProt P17106, residues 1-351)
# Sequence of UniProt P17106 (whole entry, looked up): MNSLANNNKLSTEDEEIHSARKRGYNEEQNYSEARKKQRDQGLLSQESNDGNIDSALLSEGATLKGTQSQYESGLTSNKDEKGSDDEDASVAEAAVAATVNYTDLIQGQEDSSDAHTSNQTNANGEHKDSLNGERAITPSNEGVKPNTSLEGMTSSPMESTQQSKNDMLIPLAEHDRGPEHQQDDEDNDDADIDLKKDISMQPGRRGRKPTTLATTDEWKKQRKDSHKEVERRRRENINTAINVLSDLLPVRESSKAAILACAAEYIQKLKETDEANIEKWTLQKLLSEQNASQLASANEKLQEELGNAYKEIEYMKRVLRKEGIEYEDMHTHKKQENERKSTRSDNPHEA
Oligonucleotide,fluorescence intensity
GAAAGGAGGGACCTCCACGTGCCAAACGACACTTAGGTCTTGATTCGCTTGACGCTGCTG,2140 a.u.
TGTACGAAGCTATATAAGTCACGTATAGTAGTTAGGGTCTTGATTCGCTTGACGCTGCTG,878 a.u.
GAACTGACAGCCAACAACGTGCCACTAGCAGGATAGGTCTTGATTCGCTTGACGCTGCTG,654 a.u.
CTAACTTCCAAAAATCACCCGCTTGCAATGCTGTTCGTCTTGATTCGCTTGACGCTGCTG,561 a.u.

# Sample 2 — method: protein binding microarray; form: double-stranded DNA, one strand shown; matrix: in vitro; concentration: not given; reference: not given; direction: higher = stronger binding
# Target: Histone acetyltransferase KAT6A, winged helix 2, GST fusion (KAT6A, Homo sapiens, UniProt Q92794, residues 85-181)
# Setting: 8-mer, flanks averaged, mean of 2 arrays, mostly near background
# Target sequence (chain): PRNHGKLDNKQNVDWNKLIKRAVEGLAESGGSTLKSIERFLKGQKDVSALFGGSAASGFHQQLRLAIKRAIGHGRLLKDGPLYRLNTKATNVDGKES
Oligonucleotide,E-score
CGGATCGA,0.151
ACGAGTGG,-0.141
ACTCCTAT,-0.125
GGTAAGAC,0.00788

# Sample 3 — method: aptamer microarray, sandwich; form: DNA with 2'F-ANA; matrix: in vitro; concentration: 200 nM; with: Cy3 exosite-II aptamer, 400 nM; direction: higher = stronger binding
# Target: Prothrombin, mature alpha-thrombin (F2, Homo sapiens, UniProt P00734)
# Setting: whole 15-mer aptamer, many near background
Oligonucleotide,mean fluorescence intensity [a.u.]
GGTTGGTGTGGTTGG (2'F-ANA at 1 2 4 5 7 9 10 13 14 15),49.4
GGTTGGTGTGGTTGG (2'F-ANA at 1 2 4 8 10 11),49.5
GGTTGGTGTGGTTGG (2'F-ANA at 3 5 10 11 12 13 15),83.2

# Mixed results
Molecule,target,test,system,conditions,how to read,measurement,value
"PhoQ, residues 284 288 289 292 302 303 GANMMA","PhoP, residues 12 14 15 18 19 NQGLL (Escherichia coli, UniProt P23836)","Sort-seq, item: YFP reporter",E. coli,"PhoQ-PhoP variant library, with: 10 µM Mg2+","reference: high Mg2+ state, higher = stronger signaling",fold induction,2.21

# Excerpt of the above (sample 3):
Oligonucleotide,mean fluorescence intensity [a.u.]
GGTTGGTGTGGTTGG (2'F-ANA at 1 2 4 8 10 11),49.5
